Measurements of several laboratories.
Each line is one published result; not all experiments were run side by side. Several values in a cell are separate wells, animals, samples, runs or records. ≈ marks a conversion by molar mass, not a printed value.

CC(C)[C@@H]1NC(=O)[C@@H](CCCNC(=N)N)NC(=O)[C@H]([C@@H](C)O)NC(=O)[C@@H](CCCN)NC(=O)[C@H](C)NC(=O)[C@@H](Cc2ccccc2)NC1=O  IC50 (Balamuthia mandrillaris; parasite growth, ATP luminescence; 72 h): > 20 µM
CC1(C)CC[C@]2(C(=O)O)CC[C@]3(C)C(=CC[C@@H]4[C@@]5(C)CC[C@@H]6O[C@H](C[C@H]7O[C@H](CO)[C@@H](O)[C@H](O)[C@H]7O)OC[C@@]6(C)[C@@H]5CC[C@]43C)[C@@H]2C1  inhibition (Leishmania mexicana; parasite growth, resazurin; 50 µM, amastigote): 96.3%
COc1ccc(C(=O)CSc2[nH]c(=O)cc(C(F)(F)F)c2C#N)cc1  EC50 (Leishmania infantum; parasite growth; mouse Macrophage; intracellular, amastigote): 25.7 µM
CCOC(=O)[C@]12CCC(C)(C)C[C@H]1C1=CC[C@@H]3[C@@]4(C)CC[C@H](O)[C@@](C)(CO)[C@@H]4CC[C@@]3(C)[C@]1(C)CC2  inhibition (Leishmania mexicana; parasite growth, resazurin; 50 µM, amastigote): 100%
Cc1cc(C)c(C#N)c(SC(C)C(=O)c2ccccc2)n1 (centres unmarked)  EC50 (Trypanosoma brucei; parasite growth, resazurin; RHODESIENSE): > 64 µM
C=C[C@@]1(C)C=C2CC[C@@H]3[C@](C)(CCC[C@@]3(C)C(=O)O)[C@H]2CC1  inhibition (Helicobacter pylori; microbial growth, broth dilution; 1.95 µg/mL): 49.7%
Cc1[nH]c(C(=O)Nc2ccc(C(=O)NCC(=O)O)cc2N2CCNCC2)c(Cl)c1Cl.Cl  MIC (Acinetobacter baumannii; microbial growth, broth dilution; ATCC19606): > 32 µg/mL
[2H]C([2H])([2H])N(c1ccc(F)cc1)c1c(-c2ccccn2)nc2ccccn12  IC50 (Leishmania infantum; parasite growth; intracellular, amastigote): 1.29 µM
O=C(O)c1ccc(O)cc1  inhibition (Helicobacter pylori; microbial growth, broth dilution; 1.95 µg/mL): 100%
C#CCOC(=O)[C@]12CCC(C)(C)C[C@H]1C1=CC[C@@H]3[C@@]4(C)CC[C@H](O)[C@@](C)(CO)[C@@H]4CC[C@@]3(C)[C@]1(C)CC2  inhibition (Leishmania mexicana; parasite growth, resazurin; 50 µM, amastigote): 98.7%
Fc1ccc(Nc2c(-c3ccccn3)nc3sccn23)cc1  IC50 (Leishmania infantum; parasite growth; intracellular, amastigote): 32.5 µM
COc1cc(-c2cc(=O)c3c(O)cc(O)cc3o2)ccc1O  inhibition (Helicobacter pylori; microbial growth, broth dilution; 31.25 µg/mL): 100%
Cc1[nH]c(C(=O)Nc2ccc(C(=O)NCC(=O)O)cc2N2CC[C@@H](NC(=O)OC(C)(C)C)C2)c(Cl)c1Cl  MIC (Klebsiella aerogenes; microbial growth, broth dilution; ATCC13408): > 32 µg/mL
CCCOC(=O)[C@]12CCC(C)(C)C[C@H]1C1=CC[C@@H]3[C@@]4(C)CC[C@H](O)[C@@](C)(CO)[C@@H]4CC[C@@]3(C)[C@]1(C)CC2  inhibition (Leishmania mexicana; parasite growth, resazurin; 50 µM, amastigote): 100%
COc1ccccc1C(=O)CSc1nc(C)cc(C)c1C#N  EC50 (Leishmania infantum; parasite growth; mouse Macrophage; intracellular, amastigote): 20.4 µM
CN(Cc1ccc(C(C)(C)C)cc1)Cc1cccc2ccccc12  inhibition zone (Trichophyton mentagrophytes; microbial growth, disc diffusion; ATCC18748; 0.016 µg/mL, 72 h): 50 mm
CC1(C)CC[C@]2(C(=O)O)CC[C@]3(C)C(=CC[C@@H]4[C@@]5(C)CC[C@@H]6O[C@H]([C@H](O)[C@@H](O)[C@@H](O)CO)OC[C@@]6(C)[C@@H]5CC[C@]43C)[C@@H]2C1  inhibition (Leishmania mexicana; parasite growth, resazurin; 50 µM, amastigote): 100%
COc1ccc2nc(-c3cc(N(C)C)ccn3)c(Nc3ccc(F)cc3)n2c1  EC50 (Leishmania infantum; parasite growth; intracellular, amastigote): 1.58 µM
COc1ccc(-c2cc(=O)c3c(O)cc(O[C@@H]4O[C@H](CO)[C@@H](O)[C@H](O)[C@H]4O)cc3o2)cc1O  inhibition (Helicobacter pylori; microbial growth, broth dilution; 125 µg/mL): 100%
CC(=O)Oc1ccccc1C(=O)CSc1nc(C)cc(C)c1C#N  EC50 (Leishmania infantum; parasite growth; mouse Macrophage; intracellular, amastigote): > 64 µM
CCCN(c1ccc(F)cc1)c1c(-c2ccccn2)nc2ccccn12  IC50 (Leishmania infantum; parasite growth; intracellular, amastigote): 0.67 µM and 1.7 µM
CC(C)[C@@H]1NC(=O)[C@@H](CCCNC(=N)N)NC(=O)[C@H]([C@@H](C)O)NC(=O)[C@@H](CN)NC(=O)[C@H](Cc2ccccc2)NC(=O)[C@@H](Cc2ccccc2)NC1=O  IC50 (Balamuthia mandrillaris; parasite growth, ATP luminescence): 18 µM
NS(=O)(=O)c1ccc(N/N=C2\C(=O)Nc3ccc(-c4cnco4)cc32)cc1  EC50 (Trypanosoma brucei; parasite growth): 0.398 µM
CCCS(=O)(=O)Oc1ccc(C=NNC(=O)CSc2nc3c(C)cccc3c(=O)n2-c2ccccc2)cc1OC  inhibition zone (Salmonella enterica; microbial growth, well diffusion; TYPHIMURIUM; 20 µg/mL): 2 mm
COc1ccc2ncn(-c3cc(O[C@H](C)c4ccccc4Cl)c(C(N)=O)s3)c2c1  EC50 (Trypanosoma brucei; parasite growth): 0.398 µM
Cc1cc(C)c(C#N)c(SCC(=O)c2ccncc2)n1  EC50 (Trypanosoma brucei; parasite growth, resazurin; RHODESIENSE): > 64 µM
NS(=O)(=O)c1ccc(-c2cc3ccncc3cc2OCc2ccccc2)cc1  EC50 (Trypanosoma brucei; parasite growth): 20 µM
O=C(O)CN1C(=O)/C(=C/c2ccc(-c3ccc(N(c4ccccc4)c4ccccc4)cc3)cc2)NC1=S  MBC (Streptococcus pyogenes; microbial killing, broth dilution; ATCC19615): 125 µg/mL (≈ 247 µM)
CN1CCC(C(=O)Nc2n[nH]c3nc(-c4ccc(O)cc4)c(Br)cc23)CC1  EC50 (Trypanosoma brucei; parasite growth): 0.251 µM
COc1cc(OC)cc(-c2c(-c3ccccn3)nc3n2CCC3)c1  IC50 (Leishmania infantum; parasite growth; intracellular, amastigote): 0.67 µM and 1.64 µM
NS(=O)(=O)c1ccc(N/C=C2\C(=O)Nc3ccc4ncsc4c32)cc1  EC50 (Trypanosoma brucei; parasite growth): 0.316 µM
CC(C)[C@@H]1NC(=O)[C@@H](C)NC(=O)[C@H]([C@@H](C)O)NC(=O)[C@@H](CCCN)NC(=O)[C@H](Cc2ccccc2)NC(=O)[C@@H](Cc2ccccc2)NC1=O  IC90 (Balamuthia mandrillaris; parasite growth, ATP luminescence): > 20 µM
CC1(C)CC[C@]2(C(=O)OCCC3OCCCO3)CC[C@]3(C)C(=CC[C@@H]4[C@@]5(C)CC[C@H](O)[C@@](C)(CO)[C@@H]5CC[C@]43C)[C@@H]2C1  inhibition (Leishmania mexicana; parasite growth, resazurin; 50 µM, amastigote): 99.6%
Cc1cc(C)c(C#N)c(NCC(O)c2ccc(F)cc2)n1 (centres unmarked)  EC50 (Leishmania infantum; parasite growth; mouse Macrophage; intracellular, amastigote): > 64 µM
O=c1cc(-c2ccc(O)c(O)c2)oc2cc(O)cc(O)c12  inhibition (Helicobacter pylori; microbial growth, broth dilution; 0.48 µg/mL): 58.1%
COC(=O)[C@]12CCC(C)(C)C[C@H]1C1=CC[C@@H]3[C@@]4(C)CC[C@@H]5O[C@H](CC6O[C@H]([C@H](C)O)[C@@H](O)[C@@H]6O)OC[C@@]5(C)[C@@H]4CC[C@@]3(C)[C@]1(C)CC2 (some centres unmarked)  inhibition (Leishmania mexicana; parasite growth, resazurin; 50 µM, amastigote): 98%
O=C(O[C@@H]1O[C@@H]2COC(=O)c3cc(O)c(O)c(O)c3-c3c(cc(O)c(O)c3O)C(=O)O[C@H]([C@H]1O)[C@@H]2O)c1cc(O)c(O)c(O)c1  inhibition zone (Streptococcus mutans; microbial growth, disc diffusion; 500 µg/disc): 15 mm
C[C@@H]1NC(=O)[C@@H](CCCNC(=N)N)NC(=O)[C@H]([C@@H](C)O)NC(=O)[C@@H](CCCN)NC(=O)[C@H](Cc2ccccc2)NC(=O)[C@@H](Cc2ccccc2)NC1=O  IC90 (Balamuthia mandrillaris; parasite growth, ATP luminescence): > 20 µM
COC(=O)[C@]12CCC(C)(C)C[C@H]1C1=CC[C@@H]3[C@@]4(C)CC[C@H](O)[C@@](C)(CO)[C@@H]4CC[C@@]3(C)[C@]1(C)CC2  inhibition (Leishmania mexicana; parasite growth, resazurin; 50 µM, amastigote): 97.2%
Nc1nccc(-c2c(-c3ccc(F)cc3)ncn2C2CCC(O)CC2)n1 (centres unmarked)  EC50 (Trypanosoma brucei; parasite growth): 1.26 µM
CCCCN(Cc1c(-c2ccccn2)nc2ccc(C)cn12)c1ccc(F)cc1  EC50 (Leishmania infantum; parasite growth; intracellular, amastigote): 10 µM
COc1cc([C@H]2OC[C@H]3[C@@H]2CO[C@@H]3c2cc(OC)c(O)c(OC)c2)cc(OC)c1O  inhibition (Helicobacter pylori; microbial growth, broth dilution; 62.5 µg/mL): 100%
CN[C@H](CC(C)C)C(=O)N[C@H]1C(=O)N[C@@H](CC(N)=O)C(=O)N[C@H]2C(=O)N[C@H]3C(=O)N[C@H](C(=O)N[C@H](C(=O)O)c4cc(O)cc(O)c4-c4cc3ccc4O)[C@H](O)c3ccc(c(Cl)c3)Oc3cc2cc(c3O[C@@H]2O[C@H](CO)[C@@H](O)[C@H](O)[C@H]2O[C@H]2C[C@](C)(N)[C@H](O)[C@H](C)O2)Oc2ccc(cc2Cl)[C@H]1O  MIC90 (Streptococcus viridans; microbial growth; clinical isolate): 0.5 µg/mL (≈ 0.345 µM)
CC(C)[C@@H]1NC(=O)[C@@H](CCCNC(=N)N)NC(=O)[C@H](C)NC(=O)[C@@H](CCCN)NC(=O)[C@H](Cc2ccccc2)NC(=O)[C@@H](Cc2ccccc2)NC1=O  IC90 (Balamuthia mandrillaris; parasite growth, ATP luminescence): 10.9 µM
Cc1cc(C(F)(F)F)c(C#N)c(SCC(=O)c2ccccc2)n1  EC50 (Trypanosoma brucei; parasite growth, resazurin; RHODESIENSE): 25.9 µM
COc1cc2c(cc1Nc1nc(Nc3ccsc3C(N)=O)c3cc[nH]c3n1)N(C(=O)CN(C)C)CCC2(C)C  EC50 (Trypanosoma brucei; parasite growth): 0.251 µM
COC(=O)c1ccc(O)cc1  inhibition (Helicobacter pylori; microbial growth, broth dilution; 7.81 µg/mL): 100%
CN(Cc1ccc(C2(C(F)(F)F)CC2)cc1)Cc1cccc2ccccc12  inhibition zone (Trichophyton mentagrophytes; microbial growth, disc diffusion; ATCC18748; 0.032 µg/mL, 72 h): 39.2 mm
O=c1cc(-c2ccc(O)cc2)oc2cc(O)cc(O)c12  inhibition (Helicobacter pylori; microbial growth, broth dilution; 7.81 µg/mL): 100%
Cc1cc(C)c(C#N)c(SCc2ccccc2)n1  EC50 (Leishmania infantum; parasite growth; mouse Macrophage; intracellular, amastigote): 47 µM
